Measurements gathered from unrelated publications.
Protocols differ between the studies behind these lines. Values joined by “and” are separate records of one study, mostly repeats; a detail may differ. Numbers after ± are the reported error.
HTR5A: 5-hydroxytryptamine receptor 5A (HTR5A, Homo sapiens, UniProt P47898)
Sequence of UniProt P47898 (whole entry, looked up): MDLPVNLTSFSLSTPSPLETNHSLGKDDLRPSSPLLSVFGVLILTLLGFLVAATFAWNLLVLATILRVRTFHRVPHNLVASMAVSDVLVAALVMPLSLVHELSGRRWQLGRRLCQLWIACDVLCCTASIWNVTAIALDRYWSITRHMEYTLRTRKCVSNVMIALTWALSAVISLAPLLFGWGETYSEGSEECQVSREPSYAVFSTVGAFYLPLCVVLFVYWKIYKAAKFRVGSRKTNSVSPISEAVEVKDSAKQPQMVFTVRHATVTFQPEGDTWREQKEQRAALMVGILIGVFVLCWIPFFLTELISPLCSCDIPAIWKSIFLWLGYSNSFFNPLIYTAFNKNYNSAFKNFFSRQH
HTR2B: 5-hydroxytryptamine receptor 2B (HTR2B, Homo sapiens, UniProt P41595)
Sequence of UniProt P41595 (whole entry, looked up): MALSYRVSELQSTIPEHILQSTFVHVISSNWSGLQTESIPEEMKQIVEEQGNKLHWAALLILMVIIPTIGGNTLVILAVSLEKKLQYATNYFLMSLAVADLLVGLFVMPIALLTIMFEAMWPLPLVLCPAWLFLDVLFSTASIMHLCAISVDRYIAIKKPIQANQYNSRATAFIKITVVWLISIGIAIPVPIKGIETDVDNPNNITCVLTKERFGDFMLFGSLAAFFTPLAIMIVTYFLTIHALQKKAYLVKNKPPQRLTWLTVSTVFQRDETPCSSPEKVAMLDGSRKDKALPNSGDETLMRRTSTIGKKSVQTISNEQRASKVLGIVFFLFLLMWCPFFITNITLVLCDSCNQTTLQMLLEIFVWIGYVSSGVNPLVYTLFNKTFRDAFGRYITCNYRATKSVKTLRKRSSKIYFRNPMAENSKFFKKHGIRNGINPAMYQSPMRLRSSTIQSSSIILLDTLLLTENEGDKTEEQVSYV
AMY2: Pancreatic alpha-amylase (AMY2, Sus scrofa, UniProt P00690)
Sequence of UniProt P00690 (whole entry, looked up): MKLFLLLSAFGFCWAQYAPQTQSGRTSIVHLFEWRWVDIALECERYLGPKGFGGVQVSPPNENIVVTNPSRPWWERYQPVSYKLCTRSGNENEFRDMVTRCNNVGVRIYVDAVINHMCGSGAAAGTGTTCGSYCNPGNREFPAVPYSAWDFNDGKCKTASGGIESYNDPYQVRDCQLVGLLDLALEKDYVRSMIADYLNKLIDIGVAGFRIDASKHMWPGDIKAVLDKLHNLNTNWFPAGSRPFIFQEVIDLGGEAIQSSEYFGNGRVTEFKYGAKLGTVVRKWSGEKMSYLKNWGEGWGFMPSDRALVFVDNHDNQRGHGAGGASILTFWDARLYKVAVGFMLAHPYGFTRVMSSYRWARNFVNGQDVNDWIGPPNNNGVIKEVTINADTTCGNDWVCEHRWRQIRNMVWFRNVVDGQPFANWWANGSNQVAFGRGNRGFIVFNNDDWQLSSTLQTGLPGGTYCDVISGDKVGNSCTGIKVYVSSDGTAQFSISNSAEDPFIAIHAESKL
HDAC11: Histone deacetylase 11 (HDAC11, Homo sapiens, UniProt Q96DB2)
Sequence of UniProt Q96DB2 (whole entry, looked up): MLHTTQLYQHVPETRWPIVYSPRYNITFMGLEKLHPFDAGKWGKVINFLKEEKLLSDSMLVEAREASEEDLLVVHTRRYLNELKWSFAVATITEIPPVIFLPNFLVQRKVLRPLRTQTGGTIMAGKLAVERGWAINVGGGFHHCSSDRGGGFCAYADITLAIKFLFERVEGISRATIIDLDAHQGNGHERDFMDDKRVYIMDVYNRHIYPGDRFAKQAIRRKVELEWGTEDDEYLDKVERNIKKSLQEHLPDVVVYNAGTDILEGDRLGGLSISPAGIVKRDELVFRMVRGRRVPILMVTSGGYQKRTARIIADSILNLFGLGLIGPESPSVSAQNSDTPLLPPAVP
DRD4: D(4) dopamine receptor (DRD4, Homo sapiens, UniProt P21917)
Sequence of UniProt P21917 (whole entry, looked up): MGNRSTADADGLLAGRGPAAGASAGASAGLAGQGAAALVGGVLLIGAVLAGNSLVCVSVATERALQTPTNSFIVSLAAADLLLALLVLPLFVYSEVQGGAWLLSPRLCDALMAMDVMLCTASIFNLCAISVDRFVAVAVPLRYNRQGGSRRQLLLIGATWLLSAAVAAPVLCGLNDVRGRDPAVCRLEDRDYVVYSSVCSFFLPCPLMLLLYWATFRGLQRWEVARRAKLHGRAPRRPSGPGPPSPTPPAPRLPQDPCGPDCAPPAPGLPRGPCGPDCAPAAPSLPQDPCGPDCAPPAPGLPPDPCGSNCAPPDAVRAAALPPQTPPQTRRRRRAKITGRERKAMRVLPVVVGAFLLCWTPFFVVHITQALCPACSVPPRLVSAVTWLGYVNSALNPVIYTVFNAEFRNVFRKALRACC
Sequence of UniProt Q8IWT6 (whole entry, unmodified, looked up): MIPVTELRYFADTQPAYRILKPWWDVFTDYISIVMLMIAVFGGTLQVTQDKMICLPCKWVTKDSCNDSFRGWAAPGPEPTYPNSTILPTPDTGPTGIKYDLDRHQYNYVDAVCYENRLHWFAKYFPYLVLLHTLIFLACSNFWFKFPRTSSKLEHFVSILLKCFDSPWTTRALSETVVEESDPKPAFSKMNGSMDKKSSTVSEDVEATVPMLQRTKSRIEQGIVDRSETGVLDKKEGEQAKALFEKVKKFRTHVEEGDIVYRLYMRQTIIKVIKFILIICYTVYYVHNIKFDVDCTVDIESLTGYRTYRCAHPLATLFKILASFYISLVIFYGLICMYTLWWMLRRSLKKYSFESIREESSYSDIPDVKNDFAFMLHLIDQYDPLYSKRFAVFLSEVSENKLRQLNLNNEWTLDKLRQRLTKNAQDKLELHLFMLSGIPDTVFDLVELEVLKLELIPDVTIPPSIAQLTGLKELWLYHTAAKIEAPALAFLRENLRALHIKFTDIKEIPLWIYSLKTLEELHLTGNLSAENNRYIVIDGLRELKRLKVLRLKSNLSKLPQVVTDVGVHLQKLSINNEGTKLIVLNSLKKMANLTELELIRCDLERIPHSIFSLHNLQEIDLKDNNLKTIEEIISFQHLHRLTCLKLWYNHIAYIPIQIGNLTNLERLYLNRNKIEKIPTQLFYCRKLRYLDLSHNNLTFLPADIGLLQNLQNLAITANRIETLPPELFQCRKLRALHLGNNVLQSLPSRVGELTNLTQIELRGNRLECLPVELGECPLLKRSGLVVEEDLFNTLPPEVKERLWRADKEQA
Sequence of UniProt Q96S37 (whole entry, looked up): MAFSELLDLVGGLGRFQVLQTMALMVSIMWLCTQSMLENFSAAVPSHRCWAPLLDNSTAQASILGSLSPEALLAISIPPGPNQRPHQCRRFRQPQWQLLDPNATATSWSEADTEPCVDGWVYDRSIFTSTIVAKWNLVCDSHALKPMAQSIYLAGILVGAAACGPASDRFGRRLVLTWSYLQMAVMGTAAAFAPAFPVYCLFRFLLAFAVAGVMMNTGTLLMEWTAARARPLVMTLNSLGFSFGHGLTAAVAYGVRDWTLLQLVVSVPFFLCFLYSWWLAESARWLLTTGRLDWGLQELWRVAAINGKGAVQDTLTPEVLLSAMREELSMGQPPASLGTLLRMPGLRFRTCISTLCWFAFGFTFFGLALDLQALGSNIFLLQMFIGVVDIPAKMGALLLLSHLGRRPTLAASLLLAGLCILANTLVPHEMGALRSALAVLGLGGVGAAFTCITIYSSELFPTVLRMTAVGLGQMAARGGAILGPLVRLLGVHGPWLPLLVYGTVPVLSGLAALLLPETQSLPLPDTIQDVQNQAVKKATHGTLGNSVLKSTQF
Sequence of UniProt Q63959 (whole entry, looked up): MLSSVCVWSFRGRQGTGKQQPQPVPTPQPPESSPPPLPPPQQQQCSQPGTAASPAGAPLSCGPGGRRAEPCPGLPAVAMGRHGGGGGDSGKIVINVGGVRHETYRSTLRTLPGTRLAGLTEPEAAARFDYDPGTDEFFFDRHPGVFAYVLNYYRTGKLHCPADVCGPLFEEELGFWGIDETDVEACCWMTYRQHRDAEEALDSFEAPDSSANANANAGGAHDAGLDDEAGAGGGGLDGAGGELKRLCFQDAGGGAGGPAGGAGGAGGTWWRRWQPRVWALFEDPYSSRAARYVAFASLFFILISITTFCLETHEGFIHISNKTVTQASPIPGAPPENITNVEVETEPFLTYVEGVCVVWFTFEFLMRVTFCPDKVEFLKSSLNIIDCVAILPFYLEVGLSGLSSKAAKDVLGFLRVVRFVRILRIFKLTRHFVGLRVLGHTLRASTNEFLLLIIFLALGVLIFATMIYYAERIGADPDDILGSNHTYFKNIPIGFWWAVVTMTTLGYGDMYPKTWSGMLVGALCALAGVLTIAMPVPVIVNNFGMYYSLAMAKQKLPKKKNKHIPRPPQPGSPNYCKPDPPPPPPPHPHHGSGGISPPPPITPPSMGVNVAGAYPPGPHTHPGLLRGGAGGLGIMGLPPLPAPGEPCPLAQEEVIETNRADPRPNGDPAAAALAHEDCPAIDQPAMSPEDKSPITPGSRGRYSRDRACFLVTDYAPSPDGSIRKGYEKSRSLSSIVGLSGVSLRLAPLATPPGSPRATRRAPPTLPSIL
Sequence of UniProt Q13946 (whole entry, looked up): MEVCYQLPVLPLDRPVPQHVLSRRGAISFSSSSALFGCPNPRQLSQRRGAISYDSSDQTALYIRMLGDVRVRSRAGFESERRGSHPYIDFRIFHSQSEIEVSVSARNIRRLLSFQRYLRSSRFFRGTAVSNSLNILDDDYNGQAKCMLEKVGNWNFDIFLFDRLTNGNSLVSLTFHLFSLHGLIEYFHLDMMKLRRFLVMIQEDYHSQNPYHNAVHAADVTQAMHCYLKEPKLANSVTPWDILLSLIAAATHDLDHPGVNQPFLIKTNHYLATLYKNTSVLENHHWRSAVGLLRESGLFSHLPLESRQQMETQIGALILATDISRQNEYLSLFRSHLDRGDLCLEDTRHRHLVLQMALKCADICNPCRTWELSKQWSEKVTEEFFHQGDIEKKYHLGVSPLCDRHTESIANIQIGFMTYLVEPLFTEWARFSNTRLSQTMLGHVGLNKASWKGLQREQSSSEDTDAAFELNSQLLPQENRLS
Sequence of UniProt Q6PCT8 (whole entry, looked up): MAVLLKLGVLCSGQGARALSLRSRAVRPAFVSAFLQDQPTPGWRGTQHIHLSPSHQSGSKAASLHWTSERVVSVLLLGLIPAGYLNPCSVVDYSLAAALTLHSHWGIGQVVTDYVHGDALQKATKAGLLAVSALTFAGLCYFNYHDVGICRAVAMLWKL

The inhibition of `Cc1ccc(C(=O)Nc2ccc3ccccc3c2)o1` is reported as 0% and 1.87% and 9.42% and 5.13% (Voltage-gated potassium channel KCNC3 (Kcnc3, Mus musculus, UniProt Q63959); ion current, inhibitor, whole-cell patch clamp; 10 µM).
`O=C(Nc1cccc2c(=O)cc(-c3nnn[nH]3)oc12)c1ccc(OCCCCc2ccccc2)cc1` has an inhibition of 0.307% and -1.41% and -0.686% (LRRC8A/LRRC8C (Homo sapiens, UniProt Q8IWT6+Q8TDW0, M48D/T48D); ion current, whole-cell patch clamp; HCT LRRC8-/- cells; 0.1 µM, -100 mV, T48D/M48D heteromers).
`Cc1ncccc1OC[C@@H]1CN(CCN2CCc3ccccc32)CCO1` gave an inhibition of -13% (HTR5A; radioligand binding; concentration not given, together with: [3H]LSD).
The inhibition of `C=C1CC[C@@H]2[C@](C)(CO)[C@H](O)CC[C@@]2(C)[C@@H]1C/C=C1/C(=O)OC[C@H]1O` is reported as over 90% (TLR2 (Homo sapiens, UniProt O60603); SEAP reporter gene, antagonist; HEK-Blue hTLR2; 10 µM, together with: Pam3CSK4).
For `COc1ccc2c(c1)C(=O)N(CCN1CCN(c3ccccc3OC)CC1)C2`, the inhibition was 93.9% (HTR2B; radioligand binding; concentration not given, together with: [3H]LSD).
The inhibition of `COc1cc(Cl)c(C(=O)N[C@@H](CN[C@H]2CC[C@@H](N)CC2)Cc2ccc(C#N)cc2)cc1-c1ccc(CN[C@H](C)c2ccc(C)cc2)o1` is reported as 13% (Motilin receptor (MLNR, Homo sapiens, UniProt O43193); agonist response, antagonist; human cells; 10 µM, motilin antagonist).
With `NC(=O)c1ncn([C@@H]2O[C@H](CO[P@@](=O)(O)O[P@](=O)(O)OP(=O)(O)O)[C@@H](O)[C@H]2O)n1` the inhibition was 12.5% (Non-structural polyprotein pORF1, helicase domain (Hepatitis E virus genotype 1, UniProt P33424); ATPase activity, inhibitor, colorimetric; 14 µM, together with: ATP 100 µM).
`Cc1cc(=O)oc2ccc(-c3cc(-c4ccc(Cl)cc4)nc(N)n3)c(O)c12` has an inhibition of 81.6 ± 1.23% (AMY2; enzyme activity, inhibitor; concentration not given).
`NC/C(=C\F)COc1cccc(Cn2c(=S)[nH]c(=O)c3[nH]cnc32)c1` gave an inhibition of 37.2% and 20.3% (SCN5A (Homo sapiens, UniProt Q14524); peak current, inhibitor, patch clamp; human cells; 100 µM, pulse 9).
`Cc1cc2c(cc1N1C(=O)c3cccc4c(CCCO)ccc(c34)C1=O)n(C)c(=O)n2C` (racemic) has an inhibition of 74% (Bromodomain-containing protein 2, BD2 (BRD2, Homo sapiens, UniProt P25440); binding, BROMOscan binding; 1000 nM).
`Cc1ccc(OC[C@@H]2CN(CCN3CCc4ccccc43)CCO2)cn1` gave an inhibition of 27.9% (HTR2B; radioligand binding; concentration not given, together with: [3H]LSD).
`O=C(NO)c1cc(F)cc(OS(=O)(=O)Oc2ccc(Oc3ccccc3)cc2)c1` gave an inhibition of 51% (HDAC11; 5 µM).
`O=C1N=C(N2CCCCN2)S/C1=C\c1ccc(F)cc1O` gave an inhibition of under 10% (rat GABA receptor; radioligand binding; rat cerebral cortex; 10 µM, together with: [3H]GABA).
`O=C(NO)c1ccc(CN2CCCCc3ccccc32)c(F)c1` has an inhibition of 34.2% (ADRA1A (Homo sapiens, UniProt P35348); radioligand binding, PDSP radioligand binding; 10 µM).
Under inhibition, `COc1ccc(S(=O)(=O)ON=C2C=C(C)C(=O)C(C)=C2)cc1` is recorded as “no inhibition” (HDAC11; enzyme activity, inhibitor; concentration not given).
With `c1ccc(OC[C@@H]2CN(CCN3CCc4ccccc43)CCO2)cc1` the inhibition was 103% (DRD4; radioligand binding; concentration not given, together with: [3H]N-methylspiperone).
For `Cc1cc(OC(C)C)ccc1C(=O)C(C)(C)NC(=O)c1sccc1C`, inhibition read “no inhibition” (succinate-cytochrome c oxidoreductase (Rattus norvegicus, UniProt P21913+Q641Z9+Q6PCT8); activity, succinate-cytochrome c oxidoreductase; Sprague-Dawley rat, mitochondrial fraction; dose not given).
The inhibition of `Cc1cc(C)c(OS(=O)(=O)Oc2cccc(C(=O)NO)c2)c(C)c1` is reported as 13% (HDAC11; 10 µM).
With `COc1cc2c(cc1OC)C(=O)C(CC1CCN(Cc3ccccc3)CC1)C2` (centres unmarked) the inhibition was 89.2% (DRD4; radioligand binding; concentration not given, together with: [3H]N-methylspiperone).
`CCCCCCCCCCCCCCNC(=O)/C=C/c1ccc(O)c(O)c1` gave an inhibition of 43.8 ± 3.67% (AMY2; enzyme activity; 20 µM, together with: α-glucosidase present).
The inhibition of `Cc1cc(OS(=O)(=O)Oc2ccc3ccccc3c2)cc(C(=O)NO)c1` is reported as 24% (HDAC11; 10 µM).
`CN1CC(Oc2cnc(C#N)cc2-c2ccn3nc(NC(=O)C4CC4)cc3c2)C1` has an inhibition of -2% (DMPK (Homo sapiens, UniProt Q09013); inhibitor, KinaseProfiler panel; 1 µM).
The inhibition of `O=C(CN1CCO[C@@H](COc2ccccn2)C1)N1CCc2ccccc21` is reported as -19.1% (HTR5A; radioligand binding; concentration not given, together with: [3H]LSD).
`O=c1c(O)c(-c2ccc(O)cc2)oc2c(Br)c(O)c(Br)c(O)c12` gave an inhibition of 98.2 ± 2.82% (AMY2; enzyme activity, inhibitor; 50 µM, together with: CNP-G3 substrate).
For `CC[C@H](CC[C@@H](C)[C@H]1CC[C@H]2[C@@H]3CC=C4C[C@@H](O[C@@H]5O[C@H](CO)[C@@H](O)[C@H](O)[C@H]5O)CC[C@]4(C)[C@H]3CC[C@]12C)C(C)C`, the inhibition was 41.8 ± 4.13% (PNLIP (Sus scrofa, UniProt P00591); enzyme activity; porcine; 100 µg/mL, together with: 4-MUO).
For `Cc1cc(-c2ccnc3[nH]cc(F)c23)cc(F)c1[C@@]1(O)[C@H](C)CN(C(=O)CN)C[C@@H]1C`, the inhibition was 73.2% (AMPK alpha1 and alpha2; ATP probe binding, KiNativ, measured: Lys1 site; HEK293T cell lysate; 10 µM).
For `Cc1nn(-c2nc3c(F)cc(F)cc3s2)c(O)c1C(c1ccc(C(F)(F)F)cc1)c1c(C)nn(-c2nc3c(F)cc(F)cc3s2)c1O`, the inhibition was 32.5% (Cyclic GMP-AMP synthase, catalytic domain; with DNA (CGAS, Homo sapiens, UniProt Q8N884); cGAS phase separation, inhibitor; 3.125 µM).
With `CCc1oc2ccccc2c1C(=O)c1cc(Br)c(O)c(Br)c1` the inhibition was 68.8% and 68.2% and 66.9% and 60.5% and 70.3% and 65.3% and 66.7% (SLC22A12 (Homo sapiens, UniProt Q96S37); urate uptake; HEK-293T; 0.5 µM, 10 min, 37 °C, together with: [14C]urate 200 µM).
`COc1ccccc1N1CCN(CCCCN2CCc3ccccc3C2=O)CC1` has an inhibition of 95.6% (HTR2B; radioligand binding; concentration not given, together with: [3H]LSD).
The inhibition of `CCc1nn(C)c2nc(-c3ccc(C(=O)O)cc3)nc(NCc3ccc(F)cc3)c12` is reported as 23.2% (PDE7A (Homo sapiens, UniProt Q13946); enzyme activity; 10 µM, together with: [3H]cAMP).
For `O=C1c2ccccc2CCCN1CCCCN1CCN(c2ccccn2)CC1`, the inhibition was 100% (DRD4; radioligand binding; concentration not given, together with: [3H]N-methylspiperone).
With `CC[C@@H]1[C@H](F)C(=O)N[C@@H]1COc1nccc2cc(C(N)=O)c(OC)cc12` the inhibition was 21.9% (PRPF4B (Homo sapiens, UniProt Q13523); ATP-site probe binding, inhibitor, ActivX ATP probe profiling; THP-1 cell lysate; 0.2 mM, other probe site).

Some of these lines once more:
`O=c1c(O)c(-c2ccc(O)cc2)oc2c(Br)c(O)c(Br)c(O)c12` gave an inhibition of 98.2 ± 2.82% (AMY2; enzyme activity, inhibitor; 50 µM, together with: CNP-G3 substrate).
For `CC[C@H](CC[C@@H](C)[C@H]1CC[C@H]2[C@@H]3CC=C4C[C@@H](O[C@@H]5O[C@H](CO)[C@@H](O)[C@H](O)[C@H]5O)CC[C@]4(C)[C@H]3CC[C@]12C)C(C)C`, the inhibition was 41.8 ± 4.13% (PNLIP (Sus scrofa, UniProt P00591); enzyme activity; porcine; 100 µg/mL, together with: 4-MUO).
